Measurements pooled from the literature.
± gives the spread as reported.
Ephx2: Bifunctional epoxide hydrolase 2 (Ephx2, Mus musculus, UniProt P34914)
Sequence of UniProt P34914 (whole entry, looked up): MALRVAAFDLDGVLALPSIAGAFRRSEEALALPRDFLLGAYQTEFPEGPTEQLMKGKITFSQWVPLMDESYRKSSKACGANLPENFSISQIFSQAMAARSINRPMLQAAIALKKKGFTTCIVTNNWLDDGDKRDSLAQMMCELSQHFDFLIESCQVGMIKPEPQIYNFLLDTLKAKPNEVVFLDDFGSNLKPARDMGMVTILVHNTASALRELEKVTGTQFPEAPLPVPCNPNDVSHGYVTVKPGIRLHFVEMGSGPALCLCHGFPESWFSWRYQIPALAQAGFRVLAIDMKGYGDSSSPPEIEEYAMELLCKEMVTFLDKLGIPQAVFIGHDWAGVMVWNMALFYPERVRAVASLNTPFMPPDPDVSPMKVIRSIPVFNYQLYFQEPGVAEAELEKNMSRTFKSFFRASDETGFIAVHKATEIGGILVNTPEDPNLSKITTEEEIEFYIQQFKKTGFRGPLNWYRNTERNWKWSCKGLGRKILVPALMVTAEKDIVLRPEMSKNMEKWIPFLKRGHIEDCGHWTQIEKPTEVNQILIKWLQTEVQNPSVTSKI
ABCG2: Broad substrate specificity ATP-binding cassette transporter ABCG2 (ABCG2, Homo sapiens, UniProt Q9UNQ0)
Sequence of UniProt Q9UNQ0 (whole entry, looked up): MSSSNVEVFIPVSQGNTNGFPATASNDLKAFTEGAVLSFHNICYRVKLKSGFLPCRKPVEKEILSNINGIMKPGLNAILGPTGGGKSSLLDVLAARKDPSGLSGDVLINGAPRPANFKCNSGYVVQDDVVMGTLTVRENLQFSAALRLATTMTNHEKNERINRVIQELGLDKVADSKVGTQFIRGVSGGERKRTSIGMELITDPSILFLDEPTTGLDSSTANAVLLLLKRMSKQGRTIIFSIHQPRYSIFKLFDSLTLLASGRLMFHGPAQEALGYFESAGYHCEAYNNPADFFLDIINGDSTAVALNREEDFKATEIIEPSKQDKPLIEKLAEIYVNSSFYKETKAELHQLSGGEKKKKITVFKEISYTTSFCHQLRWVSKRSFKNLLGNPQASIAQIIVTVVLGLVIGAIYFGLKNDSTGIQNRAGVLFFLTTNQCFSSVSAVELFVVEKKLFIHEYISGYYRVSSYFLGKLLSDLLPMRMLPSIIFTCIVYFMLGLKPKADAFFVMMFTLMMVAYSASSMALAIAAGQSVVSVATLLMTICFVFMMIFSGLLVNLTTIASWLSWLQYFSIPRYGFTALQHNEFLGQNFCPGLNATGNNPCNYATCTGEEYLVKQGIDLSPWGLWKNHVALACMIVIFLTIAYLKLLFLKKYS
ELANE: Neutrophil elastase (ELANE, Homo sapiens, UniProt P08246)
Sequence of UniProt P08246 (whole entry, looked up): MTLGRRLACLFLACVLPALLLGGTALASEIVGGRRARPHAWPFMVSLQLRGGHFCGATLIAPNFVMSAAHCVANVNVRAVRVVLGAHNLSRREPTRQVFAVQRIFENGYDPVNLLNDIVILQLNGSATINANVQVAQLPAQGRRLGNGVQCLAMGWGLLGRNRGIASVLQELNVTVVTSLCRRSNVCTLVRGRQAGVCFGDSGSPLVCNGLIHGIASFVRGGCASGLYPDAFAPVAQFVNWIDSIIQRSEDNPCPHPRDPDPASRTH
MAPK10: Mitogen-activated protein kinase 10 (MAPK10, Homo sapiens, UniProt P53779)
Sequence of UniProt P53779 (whole entry, looked up): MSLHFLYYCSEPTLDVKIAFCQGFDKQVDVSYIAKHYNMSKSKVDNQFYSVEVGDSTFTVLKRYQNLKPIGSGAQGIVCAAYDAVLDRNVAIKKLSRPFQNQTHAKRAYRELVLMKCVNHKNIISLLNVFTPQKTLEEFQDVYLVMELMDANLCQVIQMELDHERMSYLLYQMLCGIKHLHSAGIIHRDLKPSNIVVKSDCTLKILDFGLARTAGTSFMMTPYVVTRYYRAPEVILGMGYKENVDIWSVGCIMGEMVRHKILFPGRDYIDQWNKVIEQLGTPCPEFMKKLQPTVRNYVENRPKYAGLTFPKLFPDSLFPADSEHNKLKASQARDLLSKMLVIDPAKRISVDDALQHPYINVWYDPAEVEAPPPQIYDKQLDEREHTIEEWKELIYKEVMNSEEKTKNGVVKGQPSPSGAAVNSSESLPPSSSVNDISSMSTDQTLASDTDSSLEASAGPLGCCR
CASP3: Caspase-3 (CASP3, Homo sapiens, UniProt P42574)
Sequence of UniProt P42574 (whole entry, looked up): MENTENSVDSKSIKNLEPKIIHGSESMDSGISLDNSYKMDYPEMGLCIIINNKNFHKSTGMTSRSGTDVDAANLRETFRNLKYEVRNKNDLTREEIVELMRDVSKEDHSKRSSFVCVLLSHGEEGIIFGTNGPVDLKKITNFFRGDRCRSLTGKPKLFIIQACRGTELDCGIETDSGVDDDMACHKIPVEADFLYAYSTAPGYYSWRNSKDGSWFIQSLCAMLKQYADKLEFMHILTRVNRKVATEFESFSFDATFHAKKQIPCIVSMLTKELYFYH
Sequence of UniProt Q96KQ7 (whole entry, looked up): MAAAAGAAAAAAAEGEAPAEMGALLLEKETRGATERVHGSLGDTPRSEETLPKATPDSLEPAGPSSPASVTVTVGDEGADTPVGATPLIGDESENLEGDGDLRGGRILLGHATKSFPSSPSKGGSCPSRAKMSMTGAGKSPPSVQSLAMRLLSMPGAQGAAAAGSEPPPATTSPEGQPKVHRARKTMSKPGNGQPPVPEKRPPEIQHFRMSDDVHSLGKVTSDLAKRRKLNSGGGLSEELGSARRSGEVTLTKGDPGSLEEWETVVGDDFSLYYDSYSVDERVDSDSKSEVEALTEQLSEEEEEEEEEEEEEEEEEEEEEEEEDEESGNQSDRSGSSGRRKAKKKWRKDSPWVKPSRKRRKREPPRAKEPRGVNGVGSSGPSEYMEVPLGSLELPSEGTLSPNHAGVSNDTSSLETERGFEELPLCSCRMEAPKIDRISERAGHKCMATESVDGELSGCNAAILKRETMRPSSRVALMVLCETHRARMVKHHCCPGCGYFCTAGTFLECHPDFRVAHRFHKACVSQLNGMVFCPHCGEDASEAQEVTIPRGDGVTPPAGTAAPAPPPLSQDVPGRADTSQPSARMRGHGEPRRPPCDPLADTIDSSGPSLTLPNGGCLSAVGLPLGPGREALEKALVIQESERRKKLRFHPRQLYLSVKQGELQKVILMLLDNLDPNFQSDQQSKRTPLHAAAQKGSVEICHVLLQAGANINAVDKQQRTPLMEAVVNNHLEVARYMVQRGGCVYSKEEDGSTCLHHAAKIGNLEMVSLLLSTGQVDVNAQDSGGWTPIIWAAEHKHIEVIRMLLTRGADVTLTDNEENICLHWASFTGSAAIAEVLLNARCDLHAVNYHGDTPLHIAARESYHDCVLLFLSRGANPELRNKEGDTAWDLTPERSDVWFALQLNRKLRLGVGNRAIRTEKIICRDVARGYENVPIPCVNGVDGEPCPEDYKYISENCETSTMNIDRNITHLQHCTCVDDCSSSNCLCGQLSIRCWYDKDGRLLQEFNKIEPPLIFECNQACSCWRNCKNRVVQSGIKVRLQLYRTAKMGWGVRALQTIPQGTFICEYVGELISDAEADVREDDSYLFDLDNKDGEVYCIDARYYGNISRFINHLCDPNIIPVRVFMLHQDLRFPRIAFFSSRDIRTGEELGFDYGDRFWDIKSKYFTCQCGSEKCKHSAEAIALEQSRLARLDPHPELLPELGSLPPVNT
Sequence of UniProt P00690 (whole entry, looked up): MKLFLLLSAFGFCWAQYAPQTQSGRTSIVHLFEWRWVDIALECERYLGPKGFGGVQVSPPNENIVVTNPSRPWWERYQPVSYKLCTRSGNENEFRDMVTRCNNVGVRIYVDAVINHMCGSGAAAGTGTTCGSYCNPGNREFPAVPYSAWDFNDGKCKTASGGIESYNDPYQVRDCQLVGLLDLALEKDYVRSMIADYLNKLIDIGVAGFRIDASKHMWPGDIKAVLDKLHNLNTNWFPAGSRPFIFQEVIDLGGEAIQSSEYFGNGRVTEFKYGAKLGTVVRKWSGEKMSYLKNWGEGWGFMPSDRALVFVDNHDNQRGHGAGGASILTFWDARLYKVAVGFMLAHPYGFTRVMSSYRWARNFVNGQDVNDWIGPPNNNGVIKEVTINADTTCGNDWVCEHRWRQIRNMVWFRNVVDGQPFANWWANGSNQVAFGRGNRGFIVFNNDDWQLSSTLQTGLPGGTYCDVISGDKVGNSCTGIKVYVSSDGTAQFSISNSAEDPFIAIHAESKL
Sequence of UniProt Q01726 (whole entry, looked up): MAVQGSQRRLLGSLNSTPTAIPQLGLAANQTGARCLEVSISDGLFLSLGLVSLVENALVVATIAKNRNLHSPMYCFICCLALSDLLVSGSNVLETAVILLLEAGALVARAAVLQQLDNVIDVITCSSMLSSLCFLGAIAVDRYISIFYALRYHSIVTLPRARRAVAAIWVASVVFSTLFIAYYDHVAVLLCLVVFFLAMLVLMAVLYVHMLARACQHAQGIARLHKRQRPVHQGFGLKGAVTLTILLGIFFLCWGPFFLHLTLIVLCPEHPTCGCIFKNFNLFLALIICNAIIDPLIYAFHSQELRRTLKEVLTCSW
Sequence of UniProt A0A679KXN5 (whole entry, looked up): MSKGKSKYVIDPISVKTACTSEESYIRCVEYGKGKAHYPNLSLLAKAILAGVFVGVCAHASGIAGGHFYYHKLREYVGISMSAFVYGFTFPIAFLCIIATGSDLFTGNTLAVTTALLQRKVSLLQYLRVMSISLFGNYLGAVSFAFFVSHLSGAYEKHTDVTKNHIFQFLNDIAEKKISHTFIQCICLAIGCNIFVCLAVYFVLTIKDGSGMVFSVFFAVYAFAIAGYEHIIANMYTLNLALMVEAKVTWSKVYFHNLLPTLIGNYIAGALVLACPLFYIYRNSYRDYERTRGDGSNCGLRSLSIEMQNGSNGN
Sequence of UniProt P0A9P4 (whole entry, looked up): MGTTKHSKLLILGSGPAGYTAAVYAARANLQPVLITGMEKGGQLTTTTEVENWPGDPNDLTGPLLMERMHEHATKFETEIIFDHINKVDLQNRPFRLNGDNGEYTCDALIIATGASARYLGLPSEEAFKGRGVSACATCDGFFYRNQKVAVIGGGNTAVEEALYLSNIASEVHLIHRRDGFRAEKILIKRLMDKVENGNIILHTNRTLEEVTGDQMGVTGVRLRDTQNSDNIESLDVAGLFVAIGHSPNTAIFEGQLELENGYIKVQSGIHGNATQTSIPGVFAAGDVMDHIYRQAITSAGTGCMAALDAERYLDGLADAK

N=C(N)NCCC[C@@H]1NC(=O)[C@H](Cc2c[nH]c3ccccc23)NC(=O)[C@H](CCCNC(=N)N)NC(=O)[C@H](Cc2c[nH]c3ccccc23)NC(=O)[C@H](CCCNC(=N)N)NC(=O)[C@H](Cc2c[nH]c3ccccc23)NC(=O)[C@H](CCCNC(=N)N)NC(=O)[C@H](Cc2c[nH]c3ccccc23)NC(=O)[C@H](CCCNC(=N)N)NC(=O)[C@H](Cc2c[nH]c3ccccc23)NC(=O)[C@H](CCCNC(=N)N)NC(=O)[C@H](Cc2c[nH]c3ccccc23)NC(=O)[C@H](CCCNC(=N)N)NC(=O)[C@H](Cc2c[nH]c3ccccc23)NC(=O)[C@H](CCCNC(=N)N)NC(=O)[C@H](Cc2c[nH]c3ccccc23)NC(=O)[C@H](CCCNC(=N)N)NC(=O)[C@H](Cc2c[nH]c3ccccc23)NC1=O
IC50 (Serine/threonine-protein kinase B-raf (BRAF, Homo sapiens, UniProt P15056); enzyme activity, inhibitor): 480 nM

CCc1nc2ccc(Cl)cn2c1C(=O)NC/C=C(\C)CC/C=C(\C)CCC=C(C)C
IC50 (Cytochrome bc1-aa3 supercomplex (Mycolicibacterium smegmatis, UniProt A0R052+I7GD61); oxygen consumption, Clark electrode; together with: NADH): 441 ± 138 nM

Nc1ncnc2c1ncn2[C@@H]1O[C@H](CNS(=O)(=O)NCCCC(=O)c2ccccc2C(=O)O)[C@@H](O)[C@H]1O
IC50 (2-succinylbenzoate--CoA ligase (menE, Escherichia coli, UniProt P37353); enzyme activity, inhibitor, MenB-MenE coupled): 35000 ± 3200 nM

C=CC1C(OC2OC(CO)C(O)C(O)C2O)OC=C(C(=O)OC)C1CC(OC)OCC1OC(OC2OC=C(C(=O)O)C3CCC(C)C23)C(O)C(O)C1O (stereo not drawn)
IC50 (Tyrosine-protein phosphatase non-receptor type 1 (PTPN1, Homo sapiens, UniProt P18031); enzyme activity, inhibitor, absorbance): > 100000 nM

CNC(=O)c1cc(C)ccc1NC(=O)c1ccc(-c2c(C)ccc3[nH]ncc23)c(C)c1
IC50 (Tyrosine-protein kinase Fgr (FGR, Homo sapiens, UniProt P09769); target engagement in cells, BRET): 34500 nM

CC12CC3(C)CC(C)(C1)CC(NC(=O)NC1CCC(Oc4ccc(C(=O)O)cc4)CC1)(C2)C3 (stereo not drawn)
IC50 (Ephx2; enzyme activity, inhibitor, fluorescence): 34.5 nM

N=C(N)NCCC[C@H](NC(=O)[C@H](CC(=O)O)NC(=O)[C@@H]1CSCC(=O)NCC(=O)N[C@@H](Cc2c[nH]cn2)C(=O)N[C@H](Cc2ccccc2)C(=O)N[C@@H](CCCNC(=N)N)C(=O)N[C@@H](Cc2c[nH]c3ccccc23)C(=O)N1)C(=O)N[C@@H](Cc1ccccc1)C(=O)NCC(N)=O
IC50 (Melanocyte-stimulating hormone receptor (MC1R, Homo sapiens, UniProt Q01726); ligand displacement, radioligand): 2000 nM

Cc1nc(NC(=O)N2CCCC2)sc1-c1csc(C(C)(C)C)n1
IC50 (Phosphatidylinositol 4,5-bisphosphate 3-kinase catalytic subunit delta isoform (PIK3CD, Homo sapiens, UniProt O00329); enzyme activity, inhibitor, TR-FRET): > 1000 nM

CC(=O)C1=C(C)NC(=O)NC1c1cccc(Br)c1 (stereo not drawn)
IC50 (Pancreatic alpha-amylase (AMY2, Sus scrofa, UniProt P00690); enzyme activity, inhibitor): 97900 nM

COc1ccc(C(=O)/C=C/c2cccc3ccccc23)cc1
IC50 (ABCG2; mitoxantrone efflux, inhibitor, flow cytometry; HEK293 transfected; 30 min, 37 °C, together with: mitoxantrone 5 µM): 13600 nM

CC1=NN(S(=O)(=O)c2ccc(C)cc2)B(O)c2ccccc21
IC50 (ELANE; enzyme activity, inhibitor, fluorescence): 11700 nM

O=C1Nc2cc(Cl)ccc2/C1=C\c1cccc(Cl)c1Cl
IC50 (alpha-glucosidase; inhibitor; together with: glucopyranoside substrate): 35300 nM

CC(C)C[C@@H](NC(=O)[C@@H](Cc1ccccc1)NC(=O)[C@H]1CCCN1C(=O)[C@@H](CCC(N)=O)NC(=O)[C@H](NC(=O)[C@H]1CCCN1C(=O)[C@@H](CCCNC(=N)N)NC(=O)[C@@H](CO)NC(=O)[C@@H](CCC(N)=O)NC(=O)[C@@H](CC(=O)O)NC(=O)[C@H](N)[C@H](C)O)C(C)C)C(=O)N[C@H](CC(N)=O)C(=O)N[C@H](CC(C)C)C(=O)N[C@@H](C(=O)N[C@@H](C(=O)N1CCC[C@@H]1C(=O)N[C@H](CCCNC(=N)N)C(=O)N[C@H](CCCCN)C(=O)N1CCC[C@@H]1C(=O)N[C@H](CCCNC(=N)N)C(N)=O)[C@H](C)O)[C@H](C)O
IC50 (MAPK10; enzyme activity, inhibitor, radiometric; pH 7.5): 415000 nM

COc1ccc(C(=O)/C=C(\O)C(F)(F)C(F)(F)F)cn1
IC50 (Formate-nitrite transporter (Plasmodium knowlesi, UniProt A0A679KXN5); L-lactate transport, inhibitor; yeast; pH 6.8, together with: 14C-L-lactate 1 mM): 990 ± 80 nM

O=C1NC(Cc2c[nH]c3c(Cl)cccc23)C(=O)N1Cc1ccccc1 (racemic)
IC50 (Receptor-interacting serine/threonine-protein kinase 1 (RIPK1, Homo sapiens, UniProt Q13546); binding, inhibitor, fluorescence polarization; GST-RIP1 2.6 µM, 3% DMSO, together with: fluorescein-Nec-1 50 nM): 8500 ± 1200 nM

CCCCCCCCCCCCCCCC(OC(=O)[C@H](CCCCN(O)C=O)NC(=O)[C@H]1N=C(c2ccccc2O)O[C@@H]1C)C(C)C(=O)N[C@@H]1CCCCN(O)C1=O (stereo partly drawn)
IC50 (Muscarinic acetylcholine receptor M3 (CHRM3, Homo sapiens, UniProt P20309); calcium signal, antagonist, fluorescence): 1150 nM

CCN1C(=O)/C(=C\c2ccc(O)cc2)SC1=S
IC50 (Estrogen receptor (ESR1, Homo sapiens, UniProt P03372); coactivator recruitment, antagonist): 1190 nM

COc1cc2c(cc1OC)C(c1cccs1)N(C(=O)CC1OC(=O)c3ccccc31)CC2 (stereo not drawn)
IC50 (DNA gyrase subunit B (gyrB, Escherichia coli, UniProt P0AES6); enzyme activity, inhibitor): 17600 ± 400 nM

NS(=O)(=O)Oc1ccc2c3c(c(=O)oc2c1)CCCC3
IC50 (Steryl-sulfatase (STS, Homo sapiens, UniProt P08842); enzyme activity in cells, inhibitor): 7 nM

CN(C)C/C=C/C(=O)Nc1ccc2nc(NCCCCCN(C)C)nc(NCCCCCCN(C)C)c2c1
IC50 (Histone-lysine N-methyltransferase SETDB1, triple tudor domain (SETDB1, Homo sapiens, UniProt Q15047, C385A); binding, TR-FRET displacement; 1 h, room temperature): 8200 ± 1800 nM

COc1ccc(C(=O)/C=C/c2ccc3c(c2)OCO3)c(OC)c1
IC50 (ABCG2; transporter efflux, inhibitor, flow cytometry; HEK293; 30 min): 640 nM

CCNC(=O)[C@H]1O[C@@H](n2cnc3c(NCCCCCNC(=O)CCCCCNC(=O)COc4ccc(/C=C/C5=[N+]6C(=Cc7ccc(-c8cccs8)n7[B-]6(F)F)C=C5)cc4)ncnc32)[C@H](O)[C@@H]1O
IC50 (Adenosine receptor A1 (ADORA1, Homo sapiens, UniProt P30542); ligand displacement in cells, radioligand): 1290 nM

CCCCCCCCCCCCCCCCC1=C[C@@H](C(=O)O)[C@H]2C(=O)C(C(=O)OC)=C(CCCCCCCCCCCCCCCC)[C@H]2[C@H]1C(=O)OC
IC50 (protein kinase A; inhibitor): > 50000 nM

Cc1cc(NC(=O)c2cccc(-n3cc(NC(=O)Nc4ccc(F)cc4)cn3)c2)ccn1
IC50 (MAPK10; enzyme activity, inhibitor, TR-FRET): 103 nM

Cc1cc(N2CC[C@@](C#N)(C3CC3)C2=O)cc(NC(=O)Cc2ccccc2)n1
IC50 (Bifunctional glutamate/proline--tRNA ligase (EPRS1, Homo sapiens, UniProt P07814); enzyme activity, inhibitor, absorbance): 45.6 nM

CC(C)[C@H](NC(=O)c1ccc2ccccc2n1)C(=O)N[C@@H](CC(=O)O)C(=O)N[C@H](C(=O)N[C@@H](C)C(=O)NC(CC(=O)O)C(=O)COc1c(F)cccc1F)C(C)C (stereo partly drawn)
IC50 (CASP3; enzyme activity, inhibitor, absorbance): ~0.4 nM

COc1ccc(-c2cc(C(F)(F)F)nc(S(=O)(=O)NCC(=O)Nc3ccc(C)cc3)n2)cc1
IC50 (ATP-dependent DNA helicase Q1 (RECQL, Homo sapiens, UniProt P46063); enzyme activity, inhibitor, ADP detection): > 50000 nM

O=C(Nc1cc(C(=O)Nc2ccc(S(=O)(=O)O)cc2)cc(C(=O)Nc2ccc(S(=O)(=O)O)cc2)c1)Nc1cc(C(=O)Nc2ccc(S(=O)(=O)O)cc2)cc(C(=O)Nc2ccc(S(=O)(=O)O)cc2)c1
IC50 (ELANE; enzyme activity, inhibitor, absorbance; pH 7.4): 2100 nM

O=C(Nc1ccc(-c2nc3ccccc3s2)cc1)C1CCN(S(=O)(=O)c2ccccc2Cl)CC1
IC50 (Ephx2; enzyme activity, inhibitor, fluorescence; pH 7.4): 813 nM

CCn1[c]([Au-]([Cl])([Cl])[Cl])[n+](CC)c2ccc(C(=O)OC)cc21
IC50 (Thioredoxin reductase (trxB, Escherichia coli, UniProt P0A9P4); enzyme activity, inhibitor, absorbance; with preincubation): 252 nM

CC[C@H](C)[C@@H]1NC(=O)[C@H](Cc2c[nH]c3ccccc23)NC(=O)[C@H](C)NC(=O)c2cc3cc(c2)C(=O)NC[C@@H](C(=O)NCCC(=O)NCCC(=O)N[C@@H](CCCCN)C(N)=O)NC(=O)[C@H](CCCNC(=N)N)NC(=O)[C@@H](CCCNC(=N)N)NC(=O)[C@H](CCCNC(=N)N)NC(=O)[C@H](Cc2ccc4ccccc4c2)NC(=O)[C@H](Cc2ccccc2)NC(=O)[C@H](CNC3=O)NC(=O)[C@H](C)NC(=O)[C@H](Cc2ccc(O)cc2)NC1=O
IC50 (NF-kappa-B essential modulator, with IKK-beta (IKBKG, Homo sapiens, UniProt Q9Y6K9); inhibitor, HTRF): 1200 ± 200 nM

CSCC[C@H](NC(=O)[C@H](CCCNC(=N)N)NC(=O)[C@H](C)NC(=O)[C@@H](NC(=O)[C@H](CCC(N)=O)NC(=O)[C@H](CCCCN)NC(=O)[C@@H](NC(=O)[C@H](CCCNC(=N)N)NC(=O)[C@H](C)N)[C@@H](C)O)[C@@H](C)O)C(=O)N[C@@H](CO)C(=O)N[C@H](C(=O)NCC(=O)NCC(=O)N[C@@H](CCCCN)C(=O)N[C@@H](C)C(=O)N1CCC[C@H]1C(=O)N[C@@H](CCCNC(=N)N)C(=O)N[C@@H](CCCCN)C(=O)N[C@@H](CCC(N)=O)C(=O)N[C@@H](CC(C)C)C(=O)O)[C@@H](C)O
IC50 (Histone-lysine N-methyltransferase EHMT2 (EHMT2, Homo sapiens, UniProt Q96KQ7); enzyme activity, inhibitor): 3600 nM

O=S(=O)(Oc1ccc2ccccc2c1)C1CC2OC1C(c1ccc(O)cc1)=C2c1ccc(O)cc1 (racemic)
IC50 (Estrogen receptor beta (ESR2, Homo sapiens, UniProt Q92731); reporter gene, antagonist, ERE luciferase reporter; HepG2 transfected with ERβ; together with: estradiol 1 µM): > 10000 nM

CC(C)[C@H](NC(=O)c1ccc2ccccc2n1)C(=O)N[C@@H](CC(=O)O)C(=O)N[C@H](C(=O)N[C@@H](C)C(=O)N[C@@H](CC(=O)O)C(=O)COc1c(F)cccc1F)C(C)C
IC50 (CASP3; enzyme activity, inhibitor): 0.42 nM

CC(C)C(=O)N1CC=C(c2cc3c(Nc4cc5ncsc5cc4F)ncnc3s2)CC1
IC50 (Receptor-interacting serine/threonine-protein kinase 2 (RIPK2, Homo sapiens, UniProt O43353); enzyme activity, inhibitor): 6 nM

N[C@@H](CCC(=O)N[C@@H](CS[Se]Cc1ccc(C(=O)Nc2cc(C(F)(F)F)c(Br)c(C(F)(F)F)c2)cc1)C(=O)NCC(=O)O)C(=O)O
IC50 (Low molecular weight phosphotyrosine protein phosphatase (ACP1, Homo sapiens, UniProt P24666); enzyme activity, inhibitor; together with: pNPP, GSH 1 mM): 43000 ± 11000 nM

A few entries again:
Cc1cc(NC(=O)c2cccc(-n3cc(NC(=O)Nc4ccc(F)cc4)cn3)c2)ccn1
IC50 (MAPK10; enzyme activity, inhibitor, TR-FRET): 103 nM

Cc1nc(NC(=O)N2CCCC2)sc1-c1csc(C(C)(C)C)n1
IC50 (Phosphatidylinositol 4,5-bisphosphate 3-kinase catalytic subunit delta isoform (PIK3CD, Homo sapiens, UniProt O00329); enzyme activity, inhibitor, TR-FRET): > 1000 nM

N=C(N)NCCC[C@@H]1NC(=O)[C@H](Cc2c[nH]c3ccccc23)NC(=O)[C@H](CCCNC(=N)N)NC(=O)[C@H](Cc2c[nH]c3ccccc23)NC(=O)[C@H](CCCNC(=N)N)NC(=O)[C@H](Cc2c[nH]c3ccccc23)NC(=O)[C@H](CCCNC(=N)N)NC(=O)[C@H](Cc2c[nH]c3ccccc23)NC(=O)[C@H](CCCNC(=N)N)NC(=O)[C@H](Cc2c[nH]c3ccccc23)NC(=O)[C@H](CCCNC(=N)N)NC(=O)[C@H](Cc2c[nH]c3ccccc23)NC(=O)[C@H](CCCNC(=N)N)NC(=O)[C@H](Cc2c[nH]c3ccccc23)NC(=O)[C@H](CCCNC(=N)N)NC(=O)[C@H](Cc2c[nH]c3ccccc23)NC(=O)[C@H](CCCNC(=N)N)NC(=O)[C@H](Cc2c[nH]c3ccccc23)NC1=O
IC50 (Serine/threonine-protein kinase B-raf (BRAF, Homo sapiens, UniProt P15056); enzyme activity, inhibitor): 480 nM
